Measurements from different studies.
A part holds a random share of what one study measured.

Block 1
Target: Ras GTPase-activating protein-binding protein 1, C-terminal RGG region (G3BP1, Homo sapiens, UniProt Q13283)
Sequence of UniProt Q13283 (whole entry, looked up): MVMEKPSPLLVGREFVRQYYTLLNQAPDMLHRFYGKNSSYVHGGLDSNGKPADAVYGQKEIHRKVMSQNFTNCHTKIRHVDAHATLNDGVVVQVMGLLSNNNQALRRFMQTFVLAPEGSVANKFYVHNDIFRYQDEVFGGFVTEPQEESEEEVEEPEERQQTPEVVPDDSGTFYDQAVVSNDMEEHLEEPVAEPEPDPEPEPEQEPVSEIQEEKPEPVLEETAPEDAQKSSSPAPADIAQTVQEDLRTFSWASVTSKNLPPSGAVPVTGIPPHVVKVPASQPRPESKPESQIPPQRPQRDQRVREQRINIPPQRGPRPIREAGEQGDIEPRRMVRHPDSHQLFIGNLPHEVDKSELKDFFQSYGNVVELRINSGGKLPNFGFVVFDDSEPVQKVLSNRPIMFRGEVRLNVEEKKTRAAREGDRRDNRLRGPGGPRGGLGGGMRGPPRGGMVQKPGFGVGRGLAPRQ
Method: RNA Bind-n-Seq
Form: RNA
Sample: in vitro
Concentration: 1 µM
Notes: whole 134-nt RNA, ends assumed
With: 150 mM KCl
Baseline: input library
Reading: higher = stronger binding
Shared flanks, not repeated: GGGAGUUCUACAGUCCGACGAUC … UGGAAUUCUCGGGUGUCAAGG
Oligonucleotide	log2 enrichment
AAGUCCUGUGCUACACAUCGUAUGUACCGAAUCGGGGUUUGGGUUUGGGGUUUGGGGAAAGUAUUAUGUUACGCCGUUCGGAUCUGCACU	1.4
CACAGACAACACGCACCCACACAGACACAGAGGGAAGGGGUUGCGAUGGGGACAGGGUGCACAGCAGGGCGGGGUAGGACCCCAGCCCCU	-0.677
GUCCUGUGCUACACAUCGUAUGUACCGAAUCGGUUUUUUUGGAAAAAAAGGAAAAAGGAAAGUAUUAUGUUACGCCGUUCGGAUCUGCAC	-1.77
CCUCAAGUCCUGUGCUACACAUCGUAUGUACCGAAUCGGAGGUUUUUGGAGGAAAGUAUUAUGUUACGCCGUUCGGAUCUGCACUUCCAG	-0.672
CACAGACAACACGCACCCACACAGACACAGAGGGAAGGGGUUGGGAUGGGGACAGGGUGCACAGCAGGGCGGGGGAGGACCCCAGCCCCU	-0.106
CCUGUGCUACACAUCGUAUGUACCGAAUCGGGGAAAAAAAGGGGUUUUUUUGGGGUGGGGAAAGUAUUAUGUUACGCCGUUCGGAUCUGC	0.473
CACAGACAACACGCACCCACACAGACACAGAGGGAAGGGGUUGGGAUGGGGACAGGGUGCACAGCAGGGCGGCGUAGGACCCCAGCCCCU	-0.718
GAAAUUUGGUUAUGUGGAUUUUGAAUCUGCUGAAGACCUGGAGAAAGCGUUGGAACUCACUGGUUUGAAAGUCUUUGGCAAUGAAAUUAA	-2.93
GUCCUGUGCUACACAUCGUAUGUACCGAAUCGGGGAAAAAAAGGGGAAAGGGGAGGGGAAAGUAUUAUGUUACGCCGUUCGGAUCUGCAC	2.34
ACCAUGCAGGUGGGCAUCUUUGGGAAGUGGGGCAAGGGGGGGAUAGGGAAAAGGGUAACACUUUGGGAACAGGUGGUCCCAGGUCGUUUC	-0.883
UCAAGUCCUGUGCUACACAUCGUAUGUACCGAAUCGGAGGAAAAAGGUUUUUGGAAAGUAUUAUGUUACGCCGUUCGGAUCUGCACUUCC	-1.35
CCUCAAGUCCUGUGCUACACAUCGUAUGUACCGAAUCGGCCGGCCGGGCCGGAAAGUAUUAUGUUACGCCGUUCGGAUCUGCACUUCCAG	-1.17
CACAGACAACACGCACCCACACAGACACAGAGGGAAGGGGUUGGGAUGGGGACAGGGUGCACAGCAGGACGGGGUAGGACCCCAGCCCCU	-1.24
UAACUUUAGAGAAGGAUCUGAUGGAUAUGGCAGUGGACGUGGAUUUGGGGAUGGCUAUAAUGGGUAUGGAGGAGGACCUGGAGGUGGCAA	-1.54

Block 2
Target: Histone acetyltransferase KAT6A, both winged helices, GST fusion (KAT6A, Homo sapiens, UniProt Q92794, residues 1-181)
Method: protein binding microarray
Form: double-stranded DNA, one strand shown
Sample: in vitro
Concentration: not given
Notes: 8-mer, flanks averaged, mean of 2 arrays, mostly near background
Baseline: not given
Reading: higher = stronger binding
Construct (chain): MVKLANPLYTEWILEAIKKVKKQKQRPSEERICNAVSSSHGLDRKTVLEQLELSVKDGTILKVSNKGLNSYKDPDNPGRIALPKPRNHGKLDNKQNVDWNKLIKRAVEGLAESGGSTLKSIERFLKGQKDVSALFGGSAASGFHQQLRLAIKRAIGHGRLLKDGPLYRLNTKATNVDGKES
Oligonucleotide	E-score
AACGAGGG	-0.178
GGCACGTA	0.0725
GATCAACA	-0.123
ACATCGGG	0.0349
ACGTTGGA	-0.123
ATGGAATC	-0.0599
CGTGGTCA	-0.119
GAAGCGGA	0.151
CCCCTGTA	-0.0549
GTCAGAAA	-0.205
ACAGCTAC	-0.282
AGACCTAT	-0.0503
ATGCAGCC	-0.156
ACGGCCCA	0.133
CACAGCGG	0.0783
CACGAGTA	0.0128
ATCCTGCC	-0.0129
ACTACACA	-0.115
CGAATGAA	0.06
AGTGGTGA	-0.131
ATAATTTA	0.0177
AAAAACGT	0.0288
TACGCCAA	-0.0393
ACCTTAGA	-0.0458
CTCAATCA	-0.0706

Block 3
Target: UBE2Q1 UBC core domain (UniProt Q7Z7E8)
Sequence of UniProt Q7Z7E8 (whole entry, looked up): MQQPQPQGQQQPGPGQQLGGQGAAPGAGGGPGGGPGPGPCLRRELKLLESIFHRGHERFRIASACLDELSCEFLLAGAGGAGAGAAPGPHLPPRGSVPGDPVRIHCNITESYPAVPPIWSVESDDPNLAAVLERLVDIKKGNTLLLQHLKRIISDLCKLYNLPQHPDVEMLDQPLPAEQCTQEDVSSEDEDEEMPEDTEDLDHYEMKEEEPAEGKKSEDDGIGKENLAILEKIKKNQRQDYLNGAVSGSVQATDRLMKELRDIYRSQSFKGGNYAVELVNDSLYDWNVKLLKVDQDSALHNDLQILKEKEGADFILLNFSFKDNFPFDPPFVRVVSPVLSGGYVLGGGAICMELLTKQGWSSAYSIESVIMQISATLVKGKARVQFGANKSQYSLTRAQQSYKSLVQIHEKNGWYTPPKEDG
Method: yeast two-hybrid
Sample: yeast
Notes: mostly zero background
Baseline: not given
Reading: higher = stronger interaction
B1: RNF133 RING domain (UniProt Q8WVZ7); chain DEEINPNGDSCVICFERYKPNDIVRILTCKHFFHKNCIDPWILPHGTCPICKCDILKVLGIQ
B2: MAP3K1 RING domain (UniProt Q13233); chain NSIKDEEEQMCPICLLGMLDEESLTVCEDGCRNKLHHHCMSIWAEECRRNREPLICPLCRSKWRSHDFYS
B3: SH3RF1 RING domain (UniProt Q7Z6J0); chain DESALLDLLECPVCLERLDASAKVLPCQHTFCKRCLLGIVGSRNELRCPECRTLVGSGVEEL
B4: UBOX5 RING domain (UniProt O94941); chain EQPGSILGPECASCKRVFSPYFKKEPVYQLPCGHLLCRPCLGEKQRSLPMTCTACQRPVASQDVLR
B5: MDM4 RING domain (UniProt O15151); chain MEDCQNLLKPCSLCEKRPRDGNIIHGRTGHLVTCFHCARRLKKAGASCPICKKEIQLVIKVF
B6: DTX2 RING domain (UniProt Q86UW9); chain EELKVPPDEDCIICMEKLSTASGYSDVTDSKAIGSLAVGHLTKCSHAFHLLCLLAMYCNGNKDGSLQCPSCKTIYGEKTGTQ
Sequence	lacZ reporter activity
B1 (RNF133 RING domain)	0
AVPSGLEENLCKICMDSPIDCVLLECGHMVTCTKCGKRMNECPICRQYVIRAVHVF (RFFL RING domain (UniProt Q8WZ73))	0
B2 (MAP3K1 RING domain)	0
B3 (SH3RF1 RING domain)	0
B4 (UBOX5 RING domain)	0
GSRLQEINDVCAICYHEFTTSARITPCNHYFHALCLRKWLYIQDTCPMCHQKVYIEDDIK (RNF139 RING domain (UniProt Q8WU17))	0
B5 (MDM4 RING domain)	0
B6 (DTX2 RING domain)	0
PEDRESLKSACVVCLSSFKSCVFLECGHVCSCTECYRALPEPKKCPICRQAITRVIPLY (MUL1 RING domain (UniProt Q969V5))	0
YQNEVDDDLVCHICLQPLLQPLDTPCGHTFCYKCLRNFLQEKDFCPLDRKRLHFKLCKK (LNX2 RING domain (UniProt Q8N448))	0
GSDDEEIPFKCFICRQSFQNPVVTKCRHYFCESCALQHFRTTPRCYVCDQQTNGVFNPA (RNF113A RING domain (UniProt O15541))	0
KLRKLKEAMLCMVCCEEEINSTFCPCGHTVCCESCAAQLQSCPVCRSRVEHVQHVY (MYLIP RING domain (UniProt Q8WY64))	0

Block 4
Target: RNA binding protein fox-1 homolog 2, RRM domain, GST-SBP tag (RBFOX2, Homo sapiens, UniProt O43251-10, residues 100-194)
Method: RNA Bind-n-Seq
Form: RNA
Sample: in vitro
Concentration: 365 nM
Notes: natural RNA segment, single round, ends assumed
Baseline: no-protein control
Reading: higher = stronger binding
Shared flanks, not repeated: GGGAGUUCUACAGUCCGACGAUC … UGGAAUUCUCGGGUGCCAA
Construct (chain): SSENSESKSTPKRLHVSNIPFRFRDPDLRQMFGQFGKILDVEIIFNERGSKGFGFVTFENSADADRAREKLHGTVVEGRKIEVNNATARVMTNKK
Oligonucleotide	RBNS enrichment (R)
GUUACACUGACAACCCACAUCUUGGCUUGUGAUGGAUCAAAUCUUUUAUGAAGCCUUCAGGGGGACUCAGUAUUGCUGGCCUUUGUUGUAGCCUGUGGUUCCUUCGGAGU	0.242
UGUGGCAGCCUCCUGAGAGCCACCAAGAUCUGGGAUGAAGGCCACACCAGCCAUGUCUGCUGAAGGGCCCCAGACUGAGAUGACUCCGGCCUCCACAGUUAGAUGUUUAU	0.389
AAUGCUAGCUUGUGUGGUCUUCCAUGAUUUAUUUGUGUUUUGUGAAUUUUCAAUUUAUGGUGAUGAUCUGCUGAUAUGCAUUUAUAAAGUAAGCUCUGUUGUACAGUCUG	0.786
AAUAUUAGUUAUUCUAAGGAGAAAAAAAUGCUUCUGCAAGAUUUUCAUAAUUCAGGGGCUGUGGAUAGGAUUGUUCCUCUGUUUCCCUAAUCAUUCAUCUGUUCAUGUCU	1.93
AUGUAGGGUGAUGAGCACUCACAAUUGUUGACUAAAAUGCUGCUUUUAAAACAUAGGAAAGUAGAAUGGUUGAGUGCAAAUCCAUAGCACAAGAUAAAUUGAGCUAGUUA	0.654
UCUCUGGCUUCAGAGCCUGAAACAAAGAGAAACAGGAUCUGUCUCUACCCAGCACAGCAAAUGGUUGUAGUAAUUGCCAAAGCCCUCAUAAACCCCUCCGGCUUGAGGAG	0.559
CUUUAAAAGGUGAAAAGUAUGAUUUCUUACCACUUAAGUAUGAUUGAUAUGAUCCAACAAAUUUGAUCAGAAGCUGUAGGUAAAUCCUCUUCUGAAGCCAAAAUGGUAUA	0.399
UUCAAAGCAGCUACUCAACUAACACCUUGCAGUCUUGGAGUUAGUAUAAUACUGCUAAGAGAAGCCGGAAGCUUUUUUUUCUUGGAUUGCUUAUGAGCAGUAAUUUAAGA	0.421
GAGGACUGGAGAUGAAUGGACAAUAUGAUCAAAGACUCAUUUUUAGGCCUUGAAGAGGCCGAGCUUUCUCCCCCCAAUUGGUGGAGGACAGUCCAGAGAUGAGCAGAAAU	0.843
UUCUGUUGUCUUAAGGGAUGCCCCCUUGUGAUUUUGGUCAACUGAAUGAAAAAGAAAAGAUAGCCUUGGACUUUUUUUUCAUGGGAGGUUUGGAGGUCAAGCAUGUAGAA	22.4
UCAUAAACCCUGCAAGUCUUCAUGGUCUUCUCACCAGCCUUUCCAGCAGGUUCUAGUGCCUUGACCUGGGGUAGGACCGAGUGAAGGAGGAAGAGGGUAAAAGGGCACAG	0.765
AAGAAGGCCUGCCAGCGCUUUCUGGACUGAGCUGUGCUGCAGGUUCUACUCUGUUCCUGGCCCUGCCGGCAGCCACUGACAAGAGGCCAGUGUGUCACCAGCCCUCAGCA	0.954

A few entries again (block 1):
Oligonucleotide	log2 enrichment
CCUCAAGUCCUGUGCUACACAUCGUAUGUACCGAAUCGGCCGGCCGGGCCGGAAAGUAUUAUGUUACGCCGUUCGGAUCUGCACUUCCAG	-1.17
CACAGACAACACGCACCCACACAGACACAGAGGGAAGGGGUUGGGAUGGGGACAGGGUGCACAGCAGGGCGGGGGAGGACCCCAGCCCCU	-0.106
CCUGUGCUACACAUCGUAUGUACCGAAUCGGGGAAAAAAAGGGGUUUUUUUGGGGUGGGGAAAGUAUUAUGUUACGCCGUUCGGAUCUGC	0.473
GUCCUGUGCUACACAUCGUAUGUACCGAAUCGGUUUUUUUGGAAAAAAAGGAAAAAGGAAAGUAUUAUGUUACGCCGUUCGGAUCUGCAC	-1.77
UCAAGUCCUGUGCUACACAUCGUAUGUACCGAAUCGGAGGAAAAAGGUUUUUGGAAAGUAUUAUGUUACGCCGUUCGGAUCUGCACUUCC	-1.35
CACAGACAACACGCACCCACACAGACACAGAGGGAAGGGGUUGCGAUGGGGACAGGGUGCACAGCAGGGCGGGGUAGGACCCCAGCCCCU	-0.677
UAACUUUAGAGAAGGAUCUGAUGGAUAUGGCAGUGGACGUGGAUUUGGGGAUGGCUAUAAUGGGUAUGGAGGAGGACCUGGAGGUGGCAA	-1.54
CACAGACAACACGCACCCACACAGACACAGAGGGAAGGGGUUGGGAUGGGGACAGGGUGCACAGCAGGGCGGCGUAGGACCCCAGCCCCU	-0.718
